Measurements from different studies.
Every numbered part comes from another study and shows a few of its results, in no order. Changes are numbered by the printed parent chain.

Study 1 — target: CCNA2, cyclin fold, Cln2 fusion (human); method: yeast growth competition, sequencing; matrix: yeast; setting: strong parent motif; baseline: not given; reading: higher = stronger binding
Parent: RBL2 docking peptide (human); STTRRRLFVENDS; partner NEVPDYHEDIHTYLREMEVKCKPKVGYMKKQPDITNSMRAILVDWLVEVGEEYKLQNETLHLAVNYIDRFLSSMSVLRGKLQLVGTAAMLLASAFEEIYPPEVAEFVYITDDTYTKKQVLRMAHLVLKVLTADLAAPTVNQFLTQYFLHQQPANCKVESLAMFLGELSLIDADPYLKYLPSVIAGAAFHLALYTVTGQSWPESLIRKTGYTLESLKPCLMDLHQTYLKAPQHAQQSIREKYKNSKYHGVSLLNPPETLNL
Variant | normalised enrichment score
STTRRRLFYENDS [V9Y] | 6.34
STVRRRLFVENDS [T3V] | 6.98
STTRRRLFVENKS [D12K] | 5.85
SMTRRRLFVENDS [T2M] | 5.4
FTTRRRLFVENDS [S1F] | 4.76
STTRERLFVENDS [R5E] | 0.016
STTRIRLFVENDS [R5I] | 1.31
STTVRRLFVENDS [R4V] | 2.27
STHRRRLFVENDS [T3H] | 3.42
STYRRRLFVENDS [T3Y] | 5.71
STTRRRLVVENDS [F8V] | 0.259
STTRRRLFVENLS [D12L] | 4.46
STTTRRLFVENDS [R4T] | 0.457
SSTRRRLFVENDS [T2S] | 5.4
STTRRRYFVENDS [L7Y] | 0.683

Study 2 — method: RNA Bind-n-Seq; molecule type: RNA; matrix: in vitro; concentration: not given; setting: 4-mer, random 30-nt RNA, single round; added: RocA, ADP, phosphate; baseline: input library; reading: higher = stronger binding
Target: ATP-dependent RNA helicase DDX3X, helicase core (DDX3X, Homo sapiens, UniProt O00571, residues 132-607)
UniProt O00571, sequence (132-607, looked up): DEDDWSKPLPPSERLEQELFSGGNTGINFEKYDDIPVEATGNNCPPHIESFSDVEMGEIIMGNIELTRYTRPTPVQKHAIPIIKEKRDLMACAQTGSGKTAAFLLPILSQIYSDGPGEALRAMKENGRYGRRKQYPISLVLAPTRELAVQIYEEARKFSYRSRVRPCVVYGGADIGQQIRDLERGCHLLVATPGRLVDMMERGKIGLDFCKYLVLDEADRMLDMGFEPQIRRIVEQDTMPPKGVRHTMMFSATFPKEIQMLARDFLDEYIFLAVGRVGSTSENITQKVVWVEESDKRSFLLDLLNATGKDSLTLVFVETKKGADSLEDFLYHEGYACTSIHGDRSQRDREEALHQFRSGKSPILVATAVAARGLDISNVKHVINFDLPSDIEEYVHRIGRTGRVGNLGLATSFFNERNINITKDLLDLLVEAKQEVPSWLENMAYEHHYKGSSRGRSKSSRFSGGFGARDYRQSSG
Sequence | 4-mer enrichment [fold]
CUUU | 0.737
CAAU | 0.735
AGUG | 1.41
GAGA | 2.33
ACCC | 0.836
AGAC | 0.948
AUGC | 0.698
CGUU | 0.843
UACG | 0.791
AGCC | 0.77
CAUU | 0.716
UAAC | 0.74
AGAA | 1.48
UAUA | 0.942
AAGA | 1.47
UAGG | 1.32
ACGU | 0.753
UGUU | 1.01
CCGA | 0.934

Study 3 — method: RNAcompete; molecule type: RNA; matrix: in vitro; concentration: 20 nM; setting: 7-mer, probes averaged, single round; baseline: mean of 7-mers; reading: higher = stronger binding
Target: PABPC1L2, full length, GST fusion (mouse, UniProt A0ABA7IW68)
Target sequence (chain): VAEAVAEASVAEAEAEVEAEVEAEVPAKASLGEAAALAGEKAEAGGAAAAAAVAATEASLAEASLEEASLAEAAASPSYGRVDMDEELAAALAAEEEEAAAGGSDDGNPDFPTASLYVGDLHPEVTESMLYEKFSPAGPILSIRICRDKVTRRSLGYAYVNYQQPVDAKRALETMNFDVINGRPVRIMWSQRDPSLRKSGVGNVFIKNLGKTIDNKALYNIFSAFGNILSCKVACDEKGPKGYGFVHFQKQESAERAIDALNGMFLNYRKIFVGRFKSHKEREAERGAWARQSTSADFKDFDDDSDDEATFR
Sequence | 7-mer Z-score
AUGGAUG | 0.0859
GACGGUA | -0.0591
UAUACAC | 0.0134
CUUCGGG | -0.177
UCUGCGU | -0.376
GUAUCAC | -0.213
CAGCUCA | 0.00254
UGGGGUA | 0.18
AUUAAUA | -0.146
GGACCCA | 0.0551
GGAACGU | -0.0337
UCAGCGC | -0.344
AGCAUCC | -0.242
AUCUUCA | -0.22
AAGGCGU | 0.108
AUAUACC | -0.193
CUGUCGG | -0.162
CAUGGCC | -0.0699

Study 4 — method: protein binding microarray; molecule type: double-stranded DNA, one strand shown; matrix: in vitro; concentration: not given; baseline: not given; reading: higher = stronger binding
Target: Histone acetyltransferase KAT6A, winged helix 1, GST fusion (KAT6A, Homo sapiens, UniProt Q92794, residues 1-85)
Setting: 8-mer, flanks averaged, mean of 2 arrays, mostly near background
Target sequence (chain): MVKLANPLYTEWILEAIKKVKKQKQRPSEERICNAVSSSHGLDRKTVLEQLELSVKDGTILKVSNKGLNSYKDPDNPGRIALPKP
Sequence | E-score
GTAGTCAA | -0.108
CCCAGCTA | -0.174
CACTGAAC | -0.0642
ACTCCCGG | 0.227
GAACCTAA | 0.108
ACTAACCG | 0.246
TAGGCCTA | -0.245
AAGGGGTA | -0.254
ATAATTAC | -0.0975
GTAATCAC | -0.00957
AAGGTAGA | -0.198
GATGTCGC | 0.198
ATCTTCGA | -0.0471
AGCTGTAA | -0.113
CAAGCAAG | -0.158
ATCTGGCA | -0.203
CCGGAGCC | 0.192
CGGCCTTC | 0.336
ACGCTCCG | 0.293

Study 5 — method: DHFR PCA, deep sequencing; matrix: yeast; added: (+)-ABA 17 µM; baseline: wild-type fitted maximum; reading: higher = stronger binding
Target: ABI1, truncated, D143A, DHFR fusion (Arabidopsis thaliana)
Setting: methotrexate growth selection, single substitutions
Parent: PYL1, truncated, DHFR fusion (Arabidopsis thaliana); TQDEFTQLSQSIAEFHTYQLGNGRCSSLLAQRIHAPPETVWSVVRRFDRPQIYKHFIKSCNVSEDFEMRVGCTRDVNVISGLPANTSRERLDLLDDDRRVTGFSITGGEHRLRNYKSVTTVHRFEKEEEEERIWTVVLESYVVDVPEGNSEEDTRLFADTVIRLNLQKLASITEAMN; partner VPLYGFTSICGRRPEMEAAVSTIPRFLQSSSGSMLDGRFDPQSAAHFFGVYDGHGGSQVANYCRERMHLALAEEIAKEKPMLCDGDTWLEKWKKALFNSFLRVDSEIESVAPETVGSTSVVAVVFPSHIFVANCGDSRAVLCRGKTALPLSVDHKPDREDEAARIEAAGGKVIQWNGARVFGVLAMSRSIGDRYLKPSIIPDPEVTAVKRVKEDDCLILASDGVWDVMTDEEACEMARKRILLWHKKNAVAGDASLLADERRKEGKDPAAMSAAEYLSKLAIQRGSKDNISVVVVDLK
Variant | relative binding score
F56D | 2.87%
H16C | -21.2%
N114T | 8.19%
L166P | 16.7%
Y18S | 52%
F66Q | 77.4%
D3V | 70.7%
H16Y | -12.8%
K126T | 94.9%
S150E | 38.4%
L93N | 24.6%
E174G | 47.7%

Study 6 — method: RNA Bind-n-Seq; molecule type: RNA; matrix: in vitro; concentration: 365 nM; baseline: no-protein control; reading: higher = stronger binding
Target: RNA binding protein fox-1 homolog 2, RRM domain, GST-SBP tag (RBFOX2, Homo sapiens, UniProt O43251-10, residues 100-194)
Setting: natural RNA segment, single round, ends assumed
Residues (chain): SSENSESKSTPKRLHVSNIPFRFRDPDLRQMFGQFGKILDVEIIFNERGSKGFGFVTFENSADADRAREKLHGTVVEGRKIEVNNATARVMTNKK
Sequence | RBNS enrichment (R)
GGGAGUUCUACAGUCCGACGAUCCCCUAAAUCAACAUACCACUUGUAAACUGAACUUCGAGAAAGAAACAUGAUGUUCAUUCUGUAAAUAUACAUGCAGACAGGUCAUGUACUAAUCCUAGUCCUUUUCCUGAUGGAAUUCUCGGGUGCCAA | 0.327
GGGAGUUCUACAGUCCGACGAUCUCAAGGGCUGUAAAAUAUGAACUACUUAGGGUCGUUUGCCUUCCAUGGGAACUUGGCUAGACUUAGAAAAAGCUGUUUGUUGUGCUAAUGUAAAAGUGUCAUACAAUUUAUGGAAUUCUCGGGUGCCAA | 2.44
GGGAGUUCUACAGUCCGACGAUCAUUUAUGUUUUUAGUUUAUAUGCAAAGAAUUGUGAUAAUUUUAUAAUAAAUAUUUUUAUUAUAAUAGAAUGUGGUCUUAUAAAAUUCUUUUCUUGAAUAAUCUCAAAGUAUGGAAUUCUCGGGUGCCAA | 6.05
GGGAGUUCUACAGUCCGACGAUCGUGCACCUUGAAUGUAGUAUUUGAAAAGCUUCCCACUUGCAGCUUUACACGUUUGUUAGCACUAGUUCUGAAUUUGUGUAGGUCUCAACCUUUCAGGACAUCUGGGUCUAUGGAAUUCUCGGGUGCCAA | 0.889
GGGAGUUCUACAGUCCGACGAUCUCUUGUGCUACAGGUGGGGCGGAGCCAGCCCCUCACCUUCCUGGUUCCCUGAGGGUCCUCAGGGUGGAGGACAGGUUUGGCCCAGAAAGACUAGCCAGAGGCCUGAUGGUUGGAAUUCUCGGGUGCCAA | 0.364
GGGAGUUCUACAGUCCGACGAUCUCCUUGGAGUCCUGUUCUUGCUCACGCCUUGUGGCUAUUUUGCCCUCAGAGUGCCCUGUAUCCUACAUUUGUACAUGUAAGUAAGAGUGGCUUCCUGUCUCUCAGGUGCAUGGAAUUCUCGGGUGCCAA | 1.04
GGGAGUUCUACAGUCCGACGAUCCAGCCCCAAUAGUCCCUGCUCCUCUUAGAAUCUUCACCAAGUGGCAGGCCACCUCUGGGCAGGACCACCUGCGUCUGGCACCCAGGAGGUGAGGCAGACACCAUGGUUAGUGGAAUUCUCGGGUGCCAA | 0.288
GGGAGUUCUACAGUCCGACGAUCUUAUAUUCCUUUUUUAUUUGUUCCUUUAGUUUGUUUUGGUUCAGCAGUCAGCAGUUAAGUAUAUAACAUGGCCCGCAAGGACAAUGAAUCCACUCACAUUGCAGAACAAUUGGAAUUCUCGGGUGCCAA | 0.54
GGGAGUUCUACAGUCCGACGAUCAUGUCGGAUGCACCCAAGUCCUUAGCCCAGCUGUGCCACCUGCAGGAGUUCGCUCUUGCGUUUCUUCCCCUCCCCAAGAAGGGAGGGGGCUACUUCAGGCCCUUCUGUGUUGGAAUUCUCGGGUGCCAA | 0.38
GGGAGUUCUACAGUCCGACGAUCCAGCUCCAUGAUUCCCAGUGGGGCCCAAGCCAGGCCAAGGUGCAGUCAGUUAAUAGCAUUGGGACAGUCAUUGUAAUGGUGCUGUUACCAGUCGACACCAUUGUGUUUGAUGGAAUUCUCGGGUGCCAA | 0.246
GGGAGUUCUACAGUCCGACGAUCGUCUUGAAUCUGCCAAUCUGUAUGUUAAAACAGCUGACAGAUUGUAAAGCUAUUGCACUGCGUUGCCCUGGACAAGUCUGAAAUUGGUAUAAAAGACAAGGUGCCCAAGGUGGAAUUCUCGGGUGCCAA | 0.562
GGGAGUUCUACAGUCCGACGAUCGAACAUGUGAAUUGCUGGUUAGUAGGUGGUAUGCCUUGGGCACAUGUCACAUCUAAAUGCUGCUGGUCGAUACUUUAUCAUUCCACAAACAUUUAUUCACUUCCAAAUAUUGGAAUUCUCGGGUGCCAA | 0.505

For quick reference, copied from above (study 4):
Sequence | E-score
ACTCCCGG | 0.227
GAACCTAA | 0.108
ACTAACCG | 0.246
TAGGCCTA | -0.245
AAGGGGTA | -0.254
ATAATTAC | -0.0975
GTAATCAC | -0.00957
AAGGTAGA | -0.198
GATGTCGC | 0.198
ATCTTCGA | -0.0471
AGCTGTAA | -0.113
CAAGCAAG | -0.158
ATCTGGCA | -0.203
CCGGAGCC | 0.192
CGGCCTTC | 0.336
